Measured values collected from several papers.
A part holds a random share of what one study measured. Changes are numbered by the printed parent chain.

Study 1
Target: RNA binding protein fox-1 homolog 2, RRM domain, GST-SBP tag (RBFOX2, Homo sapiens, UniProt O43251-10, residues 100-194)
Technique: RNA Bind-n-Seq
Form: RNA
Medium: in vitro
Concentration: 365 nM
Notes: natural RNA segment, single round, ends assumed
Baseline: no-protein control
Direction: higher = stronger binding
All sequences stand within: GGGAGUUCUACAGUCCGACGAUC … UGGAAUUCUCGGGUGCCAA
Construct (chain): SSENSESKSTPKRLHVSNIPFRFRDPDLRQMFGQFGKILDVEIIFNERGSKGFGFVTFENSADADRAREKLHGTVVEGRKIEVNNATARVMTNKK
Strand | RBNS enrichment (R)
GUGCCCUGUCUACCUUCCCCAGGCAAGAAGAGCCAGGAGGGCACAGGGCUUGCACGUCACUCUGGUCUGUUCAUCGUGGUUCACAGGGCAAGGUGAAAGACACUUGAAUU | 0.426
GAGAAACAAAGUCUACUGUGUAUUUGACAGCUAUUUAUCACCAAGACAACUGUAAAGAAAUCAAGCUGGCUGACUGUAUGAUUGCUAUUUACUUAAAGUUGACAACGUUA | 0.42
AAAAAUGAAACAUUAUUUAGAAAACAAUGAGAUUACAAGUUCCAAACUCAGCCAGGAAUGUGGCUCACACCUGUAAUCCCAGCACUUUGGGACACCUAGGUGGGAGCAUC | 0.986
UAUGCCUUGGAGCUCCUGACUGCAGGGACUCUGUCCCCACACUCAAAAAGACUCAGCUCACUCAAUGAGAGAAUGUGAUUUACUUUAUAGAACGUAUAAUCAACUUUGUU | 0.837
GUAUCUUGUUCAGUGUCGUCAAGGUUGGGCUUCACGUCUCACUGCAGUGGAGCGAGCGGACAUUCUGAUCGCUGCAUUUCUUUAGAUCUCGGAGCUAAGUGUAUAUAUGA | 0.597
UGUUGCAGGCAACGGCUACAGCUUUAUUAGUGGUUACCUAACUGUGGUCUUCUUGGGCCAAGCAAUUUCUUUAAAGGAAAAGUUAGCAUUAUGUUUGUGGGGUGCCAGGG | 0.747
UAAUCACCAUAUUGUAAAAUUUUGUGUUUUUAAAGCCAACUCUUUGCUCCGGUUUUUUCAUACGACUUAGUAUGGGGCAAAAAAGCAAUGUGAAGAAUCAACUCUAGGGU | 0.344
GUGCUCAGAUGGGCUCAUCGUUGGUUCGUUUUUACUGUAUAUUUAUAGUAAUAAAAUCAUGCAGCAAUAUCCUGUCUGCUCCUUCCUCCGGGUGCAGCCCUCAGGAUUGU | 0.211

Study 2
Target: Histone acetyltransferase KAT6A, winged helix 2, GST fusion (KAT6A, Homo sapiens, UniProt Q92794, residues 85-181)
Technique: protein binding microarray
Form: double-stranded DNA, one strand shown
Medium: in vitro
Concentration: not given
Notes: 8-mer, flanks averaged, mean of 2 arrays, mostly near background
Baseline: not given
Direction: higher = stronger binding
Construct (chain): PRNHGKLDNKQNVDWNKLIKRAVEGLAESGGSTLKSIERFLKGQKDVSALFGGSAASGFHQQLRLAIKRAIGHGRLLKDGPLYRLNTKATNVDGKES
Strand | E-score
ACGCTAGC | -0.101
AACCGACG | 0.25
ACTCGTAA | -0.069
GCCTTGGA | -0.0177
CAAGCCAC | -0.113
GCCAGGCA | 0.0788
GCCGGTTA | 0.17
CAGTGCCA | -0.152
AATATTCC | 0.284
CGCCGGTA | -0.0727
CAGTCAAA | 0.044
GAACAAGA | -0.112
ACATTCGA | -0.0671
GAGGCTAA | -0.0188
ACGCTACG | -0.0121
ATGTCATC | -0.179
AAAGTAAG | -0.0769
CCTGAGGC | 0.0254
AGTACAGC | 0.0405
CGCAAGCC | 0.182
GGAATCCA | 0.00134

Study 3
Target: Interferon regulatory factor 7, full length, phosphomimetic (IRF7, Homo sapiens, UniProt Q92985, residues 1-503, S471D/S472D/S475D/S476D/S477D/S483D/S484D/S487D)
Technique: protein-binding microarray
Form: double-stranded DNA, one strand shown
Medium: in vitro
Concentration: 2200 nM top
Notes: 60-bp whole probe
Added: salmon DNA 0.4 mg/ml
Baseline: random background probes
Direction: higher = stronger binding
All sequences stand within: GCCTAGCAC … GTCTTGATTCGCTTGACGCTGCTG
Target sequence (chain): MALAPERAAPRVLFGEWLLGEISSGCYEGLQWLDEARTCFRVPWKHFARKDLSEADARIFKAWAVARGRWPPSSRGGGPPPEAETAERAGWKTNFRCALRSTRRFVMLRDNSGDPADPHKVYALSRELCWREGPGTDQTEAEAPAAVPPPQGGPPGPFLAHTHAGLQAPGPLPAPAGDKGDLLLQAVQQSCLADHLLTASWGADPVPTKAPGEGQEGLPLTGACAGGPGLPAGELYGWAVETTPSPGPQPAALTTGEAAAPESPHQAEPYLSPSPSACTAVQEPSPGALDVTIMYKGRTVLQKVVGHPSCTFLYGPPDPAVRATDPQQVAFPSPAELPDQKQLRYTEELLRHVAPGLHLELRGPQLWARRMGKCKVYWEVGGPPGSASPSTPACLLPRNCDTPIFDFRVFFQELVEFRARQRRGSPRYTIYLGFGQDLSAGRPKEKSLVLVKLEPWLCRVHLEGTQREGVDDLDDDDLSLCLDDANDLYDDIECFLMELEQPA
Strand | fitted relative affinity [z-score]
GACGAACTGAGTATCGAGGCGTGCTAG | -0.191
GACGGTATCGACACTGGAGACGTGCTA | -0.28
GACGATAGCAGTATCGAGACGTGCTAG | 0.0104
TTAGTTTTCAGTTTCGATTAGTGCTAG | 10.6
TAAGGACTGGACACTGGGTTAGTGCTA | -0.73
GTCGGTCTCCTTCTCCTGACGTGCTAG | 1.81
GTCTCTGTTCTTTTCAGTCCGTGCTAG | 2.16
GACGATCTCGGGACTGGAGACGTGCTA | -0.393
TCAAATTAGTGTTTTGCACTGTGCTAG | -0.0207
TTAGGAATGGACTATCGGTTAGTGCTA | -0.467
GACGATTTCAGTTTCCAGACGTGCTAG | 3.69
TTAGACTTCAGACTGGATTAGTGCTAG | -0.534
TTAGGTATCCTTCACCTTTAGTGCTAG | 0.785
GACGGTATCGGTCTCGGGCCGTGCTAG | -0.205
TCATTCTTCCCTGTGAAACTGTGCTAG | 1.99
TTAGGACTGCTTTTCCCTTAGTGCTAG | 1.14
TTAGGACTGGACATTCGGTTAGTGCTA | 0.774
GACGGTCTCCTTCTACTGACGTGCTAG | 1.24
TTAGGTTTCGACTTTCTGTTAGTGCTA | 7.17

Study 4
Target: CCND1, cyclin fold, Cln2 fusion (human)
Technique: yeast growth competition, sequencing
Medium: yeast
Notes: weak parent motif
Baseline: not given
Direction: higher = stronger binding
Starting sequence: KIF20B docking peptide (human); KRAKRKLYTSEIS
Substitution | normalised enrichment score
Y8A | -0.31
R2A | -0.00475
R5A | -0.398
K1A | 0.0276
K6A | 0.119
E11A | 0.0605

Mixed results
Substance | target | assay | test system | setting | scale | measurement | value
PhoQ, residues 284 288 289 292 302 303 SCEHLI | PhoP, residues 12 14 15 18 19 NHFIF (Escherichia coli, UniProt P23836) | Sort-seq, refers to: YFP reporter | E. coli | PhoQ-PhoP variant library, added: 10 µM Mg2+ | baseline: high Mg2+ state, higher = stronger signaling | fold induction | 18.8

Some of these lines once more (study 1):
Strand | RBNS enrichment (R)
GAGAAACAAAGUCUACUGUGUAUUUGACAGCUAUUUAUCACCAAGACAACUGUAAAGAAAUCAAGCUGGCUGACUGUAUGAUUGCUAUUUACUUAAAGUUGACAACGUUA | 0.42
AAAAAUGAAACAUUAUUUAGAAAACAAUGAGAUUACAAGUUCCAAACUCAGCCAGGAAUGUGGCUCACACCUGUAAUCCCAGCACUUUGGGACACCUAGGUGGGAGCAUC | 0.986
UAUGCCUUGGAGCUCCUGACUGCAGGGACUCUGUCCCCACACUCAAAAAGACUCAGCUCACUCAAUGAGAGAAUGUGAUUUACUUUAUAGAACGUAUAAUCAACUUUGUU | 0.837
GUAUCUUGUUCAGUGUCGUCAAGGUUGGGCUUCACGUCUCACUGCAGUGGAGCGAGCGGACAUUCUGAUCGCUGCAUUUCUUUAGAUCUCGGAGCUAAGUGUAUAUAUGA | 0.597
UGUUGCAGGCAACGGCUACAGCUUUAUUAGUGGUUACCUAACUGUGGUCUUCUUGGGCCAAGCAAUUUCUUUAAAGGAAAAGUUAGCAUUAUGUUUGUGGGGUGCCAGGG | 0.747
UAAUCACCAUAUUGUAAAAUUUUGUGUUUUUAAAGCCAACUCUUUGCUCCGGUUUUUUCAUACGACUUAGUAUGGGGCAAAAAAGCAAUGUGAAGAAUCAACUCUAGGGU | 0.344
